Measured values from different studies.
Each numbered part is a random draw from the data of one study; scales do not carry over between parts. Substitutions count along the parent as printed.

Study 1
Target: Histone acetyltransferase KAT6A, both winged helices, GST fusion (KAT6A, Homo sapiens, UniProt Q92794, residues 1-181)
Method: protein binding microarray
Molecule type: double-stranded DNA, one strand shown
Sample: in vitro
Tested at: not given
Setting: 8-mer, flanks averaged, mean of 2 arrays, mostly near background
Reference: not given
Direction: higher = stronger binding
Construct (chain): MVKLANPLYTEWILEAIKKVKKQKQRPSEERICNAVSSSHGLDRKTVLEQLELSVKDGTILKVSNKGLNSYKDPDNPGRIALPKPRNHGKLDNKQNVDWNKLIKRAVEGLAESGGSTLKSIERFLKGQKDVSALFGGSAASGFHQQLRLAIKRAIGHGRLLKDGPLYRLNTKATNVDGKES
| Strand | E-score |
| --- | --- |
| AGTTTTTC | 0.0451 |
| CAACTTCG | -0.0327 |
| CTGGCCCC | -0.231 |
| CCATCCAG | -0.134 |
| AGGCATAA | -0.117 |
| ACGTAGGA | -0.161 |
| AAATGTAA | -0.0504 |
| CTTGATCC | -0.0967 |
| GTAGAAAC | -0.0107 |
| CGAACGAC | -0.0165 |
| CGTACCCC | 0.171 |
| ATAGCCCC | -0.106 |
| CCTCTTGA | -0.186 |
| GCACTGCC | 0.139 |
| GCTGCAAA | -0.0256 |
| ATTCAGCA | -0.148 |
| CAAGTGAG | -0.192 |
| TAGGGTGA | -0.267 |
| CGGAGTTC | 0.125 |
| AAGATAGA | -0.161 |
| ACCAACCC | -0.133 |
| ATTATGTG | 0.0408 |
| TTAGCTAA | -0.208 |
| ACTACTTG | -0.118 |
| TCCACTCA | -0.225 |

Study 2
Target: Interferon regulatory factor 7, full length, phosphomimetic (IRF7, Homo sapiens, UniProt Q92985, residues 1-503, S471D/S472D/S475D/S476D/S477D/S483D/S484D/S487D)
Method: protein-binding microarray
Molecule type: double-stranded DNA, one strand shown
Sample: in vitro
Tested at: 2200 nM top
Setting: 60-bp whole probe
Added: salmon DNA 0.4 mg/ml
Reference: random background probes
Direction: higher = stronger binding
Constant ends, left off below: GCCTAGCAC … GTCTTGATTCGCTTGACGCTGCTG
Residues (chain): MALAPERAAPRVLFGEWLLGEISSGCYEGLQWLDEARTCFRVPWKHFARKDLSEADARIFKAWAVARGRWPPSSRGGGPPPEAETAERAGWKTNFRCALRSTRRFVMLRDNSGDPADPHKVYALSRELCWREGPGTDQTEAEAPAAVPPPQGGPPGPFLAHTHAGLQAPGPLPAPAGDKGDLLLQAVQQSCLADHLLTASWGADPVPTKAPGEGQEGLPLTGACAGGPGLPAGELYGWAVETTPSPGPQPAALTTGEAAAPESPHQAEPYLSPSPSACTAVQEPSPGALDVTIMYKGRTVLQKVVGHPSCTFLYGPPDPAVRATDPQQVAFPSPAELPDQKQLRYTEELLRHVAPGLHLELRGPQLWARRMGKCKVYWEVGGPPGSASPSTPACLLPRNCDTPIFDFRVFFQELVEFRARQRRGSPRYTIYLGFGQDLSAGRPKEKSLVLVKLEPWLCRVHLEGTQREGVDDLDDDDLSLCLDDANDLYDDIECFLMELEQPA
| Strand | fitted relative affinity [z-score] |
| --- | --- |
| GCCGGTTTCGGGTTTCGGGACGTGCTA | 11.2 |
| CACTCTCTACATGTGTTTAAGTGCTAG | 1.49 |
| TTAGATAGCAGTCTCGATTAGTGCTAG | -0.306 |
| AAGTAAAATGCAAAGAGGAAGTGCTAG | -0.951 |
| TTCGATATCGGGTTTCGATTAGTGCTA | 3.26 |
| GACGCACTGGGGTTTCGGGACGTGCTA | 0.856 |
| CTCTACTTGTGTCTAGAGATGTGCTAG | 0.856 |
| TTTGGTTTCTGGTTTATTGAGTGCTAG | 4.43 |
| TCATACTTCACTCTCTGACTGTGCTAG | 1.54 |
| TCAAAAATGGAAACTCGTACTGTGCTA | -0.423 |
| TTAGAACTGAGTCTCGATAAGTGCTAG | -0.422 |
| GACGATATCGGGTTTCGTGACGTGCTA | 1.33 |
| TTAGGTTTCCTTTCCCTTCAGTGCTAG | 4.83 |
| TTAGGTCTCGGTTTCGGTGAGTGCTAG | 3.21 |
| TCAAGCTTCCATTTTCTACTGTGCTAG | 1.97 |
| TTAGATTTCGGGACTGGACTAGTGCTA | 0.671 |
| GACGGACTGGACAATGGGGACGTGCTA | -0.875 |
| TTAGAACTGTGGTATCGATTAGTGCTA | -0.203 |
| TTAGATTTCGGATTTCGATTAGTGCTA | 4.32 |
| TTAAATTTCGGGACTGGATTAGTGCTA | 0.906 |
| TCACCTATAGGGCCTGACACTGTGCTA | 0.294 |
| GACGGTACCGGTATCGGGACGTGCTAG | -0.033 |
| TCATCTCCCAAGTCTTGTACTGTGCTA | 1.59 |

Study 3
Target: Ras GTPase-activating protein-binding protein 1, C-terminal RGG region (G3BP1, Homo sapiens, UniProt Q13283)
Sequence of UniProt Q13283 (whole entry, looked up): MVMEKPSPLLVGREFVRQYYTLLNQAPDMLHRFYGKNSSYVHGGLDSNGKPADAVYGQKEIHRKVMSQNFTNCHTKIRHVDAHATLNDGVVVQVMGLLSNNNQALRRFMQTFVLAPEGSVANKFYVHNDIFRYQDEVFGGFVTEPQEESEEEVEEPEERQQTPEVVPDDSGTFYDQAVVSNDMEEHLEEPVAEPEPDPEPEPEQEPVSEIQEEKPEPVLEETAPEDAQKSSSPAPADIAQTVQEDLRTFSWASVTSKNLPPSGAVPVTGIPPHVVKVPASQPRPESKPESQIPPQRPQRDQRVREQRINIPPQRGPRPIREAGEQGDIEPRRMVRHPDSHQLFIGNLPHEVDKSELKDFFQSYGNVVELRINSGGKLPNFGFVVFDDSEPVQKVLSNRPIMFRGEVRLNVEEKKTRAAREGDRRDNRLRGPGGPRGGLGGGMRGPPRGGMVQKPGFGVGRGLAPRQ
Method: RNA Bind-n-Seq
Molecule type: RNA
Sample: in vitro
Tested at: 1 µM
Setting: whole 134-nt RNA, ends assumed
Added: 150 mM KCl
Reference: input library
Direction: higher = stronger binding
| Strand | log2 enrichment |
| --- | --- |
| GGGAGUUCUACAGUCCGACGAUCUGGGAGGUGGAUUUUGUUUAUUUUUUUAGCUCAUUUCCAGGGGUGGGAAUUUUUUAUUAAUAUGUGUCAUGAAUAAAGUUGUUUUUGAAAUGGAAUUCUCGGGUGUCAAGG | 3.69 |
| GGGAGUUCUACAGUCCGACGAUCUAACUUUAGAGGAGGAUCUGAUGGAUAUGGCAGUGGACGUGGAUUUGGGGAUGGCUAUAAUGGGUAUGGAGGAGGACCGGGAGGUGGCAAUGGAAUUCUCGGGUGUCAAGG | -0.653 |
| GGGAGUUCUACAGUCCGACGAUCCGCAGACAACACGCACCCACACAGACACAGAGGGAAGGGGUUGGGAUGGGGACAGGGUGCACAGCAGGGCGGGGUAGGACCCCAGCCCCUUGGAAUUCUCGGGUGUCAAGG | -0.0948 |
| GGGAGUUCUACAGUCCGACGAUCAAGUCCUGUGCUACACAUCGUAUGUACCGAAUCGGGAAAGGGGAAAGGGAAAGGGGAAAGUAUUAUGUUACGCCGUUCGGAUCUGCACUUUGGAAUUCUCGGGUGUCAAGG | 1.27 |
| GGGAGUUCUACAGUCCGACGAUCCCUGUGCUACACAUCGUAUGUACCGAAUCGGGAAAAAGGGUUUUUUUGGGAAAAAAAGGGAAAGUAUUAUGUUACGCCGUUCGGAUCUGCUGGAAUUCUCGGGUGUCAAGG | -2 |
| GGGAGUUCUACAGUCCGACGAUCCUCAAGUCCUGUGCUACACAUCGUAUGUACCGAAUCGGAAGGGGAAGGAAGGGAAAGUAUUAUGUUACGCCGUUCGGAUCUGCACUUCCAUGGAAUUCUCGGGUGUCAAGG | -1.06 |
| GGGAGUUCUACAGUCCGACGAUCGUCCUGUGCUACACAUCGUAUGUACCGAAUCGGCCCCCCGGCCCCCCGGCCCCCCGGGGAAAGUAUUAUGUUACGCCGUUCGGAUCUGCAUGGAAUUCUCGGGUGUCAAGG | -1.29 |
| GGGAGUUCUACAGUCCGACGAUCUGGGAGGUGGAUUUUGUUUAUUUUUUUAGCUCAUUUCCAGGGGUGGGAAUUUUUUUUUAAUAUGUGUCAUGAAUAAAGUUGUAUUUGAAAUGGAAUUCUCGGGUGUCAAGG | 3.96 |
| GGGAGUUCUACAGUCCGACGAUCCACAGACAACACGCACCCUCACAGACACAGAGGGAAGGGGUUGGGAUGGGGACAGGGUGCACAGCAGGGCGGGGUAGGACCCCAGCCCCUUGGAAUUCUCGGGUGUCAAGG | 0.125 |
| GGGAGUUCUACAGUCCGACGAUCCAAGUCCUGUGCUACACAUCGUAUGUACCGAAUCGGGAGGGUUUGGGAAAAAGGGAAAGUAUUAUGUUACGCCGUUCGGAUCUGCACUUCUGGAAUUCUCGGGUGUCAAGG | 1.44 |

Study 4
Target: CCNA1, cyclin fold, Cln2 fusion (human)
Method: yeast growth competition, sequencing
Sample: yeast
Setting: weak parent motif
Reference: not given
Direction: higher = stronger binding
Parent: E2F1 docking peptide (human); PPVKRRLDLETDH
| Substitution | normalised enrichment score |
| --- | --- |
| R5F | 0.279 |
| T11M | 0.0931 |
| H13Q | 0.627 |
| E10M | 0.441 |
| D12A | 0.744 |
| R6D | -0.0231 |
| H13A | 0.638 |
| R5A L7A | 0.0207 |
| T11E | 0.342 |
| P1I | 0.408 |
| D8Q | 0.599 |
| P2Y | -0.185 |
| T11W | 0.658 |
| T11G | 0.215 |
| V3G | 0.174 |
| D12F | 0.97 |
| E10T | 0.625 |

For quick reference, copied from above (study 2):
| Strand | fitted relative affinity [z-score] |
| --- | --- |
| TCATCTCCCAAGTCTTGTACTGTGCTA | 1.59 |
| GACGATATCGGGTTTCGTGACGTGCTA | 1.33 |
| TTAGATTTCGGGACTGGACTAGTGCTA | 0.671 |
| TTTGGTTTCTGGTTTATTGAGTGCTAG | 4.43 |
| TTAGGTCTCGGTTTCGGTGAGTGCTAG | 3.21 |
| AAGTAAAATGCAAAGAGGAAGTGCTAG | -0.951 |
| GACGCACTGGGGTTTCGGGACGTGCTA | 0.856 |
| TCAAAAATGGAAACTCGTACTGTGCTA | -0.423 |
